Published values from different studies.
Numbered parts are unrelated; each lists some results of a single study. Several values in a cell are separate wells, animals, samples, runs or records.

Study 1
Cell line: normal-adjacent epithelial organoid
Effect on: cell viability
Technique: CellTiter-Glo
Species: human
Sample: patient-derived organoid
Tested at: 1 µM
Baseline: DMSO
Compound | viability
CC(=O)Nc1c(C(C)=O)c(=O)n(C)c2nc(-c3ccc(Cl)cc3Cl)c(-c3ccc(Cl)cc3)cc12 | 79.7% and 86.4%
Cc1c(N2CCNCC2)nc2ccc(Br)cc2c1C(=O)NC[C@H](CCC(=O)O)c1ccccc1Cl | 127%
CN1CCN(C(=O)C(C)(C)c2ccc(C(=O)Nc3cn4cc(-c5ccncc5)ccc4n3)cc2)CC1 | 51.7%
CCNC(=O)c1cc2c(N3CCOC[C@@H]3C)ccnc2[nH]1 | 111% and 101%
O=c1nc(-c2ccccn2)sc2ccccc12 | 108% and 96.2%
CC(=O)C1=C(C)N(c2cccc(C(F)(F)F)c2)C(=O)N[C@@H]1c1ccc(C#N)nc1 | 103% and 82.9%
CC(=O)Nc1c(F)cc(C(=O)N[C@H]2CC[C@H](O)CC2)cc1O[C@@H](C)c1ccccc1 | 100%
C[C@@H]1CN(c2cc(-c3nn(C)c4ccc(OC5(C)CC5)cc34)ncn2)C[C@H](C)O1 | 73.9%
O=C1NC(c2ccccn2)Sc2ccccc21 (stereo not drawn) | 92.8% and 107%
Cn1nc(C(=O)NCc2ccc(C(=O)O)cc2)cc1-c1ccc2[nH]ccc2c1 | 81%
Cc1c(N2CCCC2)nc2ccc(Br)cc2c1C(=O)NC[C@H](CCC(=O)O)c1ccccc1Cl | 118%
CN(C(=O)c1ccccc1)c1cc(N(C)c2ccc3c(c2)CCc2ccc(C(=O)NCCN4CCOCC4)cc2C3=O)ccc1F | 98.6%
Cc1ccccc1Oc1cc(-n2c(=O)cc(C(F)(F)F)[nH]c2=O)c2ccccc2c1Cl | 106%
CN([C@@H]1CCc2c(CC(=O)O)c3ccccc3n2C1)S(=O)(=O)c1ccc(F)cc1 | 94% and 114%

Study 2
Structure (SMILES): COc1ccc(-c2c(Nc3ccccn3)[nH]c3c(C4=CCCCC4)c(-c4ccccc4)nn3c2=O)cc1
Sample: plasma
test | test system | setting | geometric mean concentration [ng/mL]
measured: methionine | human patients | 200 mg once daily, 0 h | 107000
measured: S-adenosylmethionine | human patients | 200 mg once daily, 0 h | 15.3
measured: S-adenosylmethionine | human patients | 200 mg once daily, 8 h | 15.2
measured: S-adenosylmethionine | human patients | 100 mg once daily, 8 h | 20.3
LC-MS/MS, measured: S-adenosylmethionine |  | oral, 50 mg once daily, 0 h, cycle 1 day 1 | 22.8
measured: methionine | human patients | 200 mg once daily, 4 h | 113000
measured: methionine | human patients | 200 mg once daily, 6 h | 106000
measured: methionine | human patients | 400 mg once daily, 0 h | 73500
measured: S-adenosylmethionine | human patients | 150 mg once daily, 4 h | 20.3
LC-MS/MS, measured: S-adenosylmethionine |  | oral, 50 mg once daily, 6 h, cycle 1 day 1 | 19.2
measured: methionine | human patients | 400 mg once daily, 8 h | 79500
measured: S-adenosylmethionine | human patients | 400 mg once daily, 0 h | 18.5

Study 3
Organism: Sarcocystis neurona
Effect on: parasite growth
Tested at: 10 µM
Time: 96 h
Setting: second screen
Baseline: untreated
Structure (SMILES) | log2 fold change
O=C1[C@H](CC[C@H](O)c2ccc(F)cc2)[C@@H](c2ccc(O)cc2)N1c1ccc(F)cc1 | -0.19
OC(CCN1CCCC1)(c1ccccc1)C1CCCCC1 (stereo not drawn) | 0.0456
COc1cccc2c1C(=O)c1c(O)c3c(c(O)c1C2=O)C[C@@](O)(C(C)=O)C[C@@H]3O[C@H]1C[C@H](N)[C@H](O)[C@H](C)O1 | -4.52
Cc1ccsc1C(=CCCN1CCC[C@@H](C(=O)O)C1)c1sccc1C | 0.39
COCCCC/C(=N\OCCN)c1ccc(C(F)(F)F)cc1 | 0.29
CCOC(=O)C1=C(C)NC(C)=C(C(=O)OC)C1c1cccc([N+](=O)[O-])c1 (stereo not drawn) | 0.45

Other studies, line by line
Structure (SMILES) | test | quantity | value
CCOC(=O)[C@@H]1CSCC(=O)N[C@H](CC)C(=O)N(CC(C)C)CC(=O)N[C@@H](CC(C)C)C(=O)N(C)[C@H](C)C(=O)N(C)[C@@H](C)C(=O)N[C@H](CC(C)C)C(=O)N(C)[C@H](C)C(=O)N[C@@H](CC(C)C)C(=O)N1C | PRP-column chromatography | log k' (60) | 0.824
